{"data": "Results from different studies", "CDK8": "Cyclin-dependent kinase 8 (CDK8, Homo sapiens, UniProt P49336)", "CDK8 with cyclin C": "Cyclin-dependent kinase 8, with cyclin C (CDK8, Homo sapiens, UniProt P49336)", "note": "Compare with care: the assays were run in different laboratories."}
{"SMILES": "CCN1CCN(Cc2ccc(C(=O)Nc3ccc(C)c(NCc4cnc5[nH]ccc5c4OC)c3)cc2C(F)(F)F)CC1", "target": "CDK8", "test": "binding, competition with immobilised ligand", "conditions": "1 µM", "endpoint": "remaining binding", "result": "32%"}
{"SMILES": "C=CC(=O)N1CCCC(n2c(=O)c3ncccc3n(Cc3ccc(Oc4ccccc4)cc3)c2=O)C1 (stereo not shown)", "target": "CDK8", "test": "cell-free assay, competition with immobilised ligand", "conditions": "1 µM", "endpoint": "remaining binding", "result": "95%"}
{"SMILES": "Cc1cnc2nc1Nc1cccc(c1)COC/C=C/COCc1cc(ccc1OCCN1CCOCC1)N2", "target": "CDK8", "test": "cell-free assay", "conditions": "0.1 µM", "endpoint": "remaining signal", "result": "83%"}
{"SMILES": "COc1cc(Nc2nc(C)cc(-c3cnn4nc(OC)ccc34)n2)cc(C(F)(F)F)c1", "target": "CDK8", "test": "inhibitor", "conditions": "1 µM", "how to read": "baseline: control", "endpoint": "remaining activity", "result": "100%"}
{"SMILES": "C=CC(=O)N1Cc2nc(-c3cc(-c4cc(Cl)cnc4Cl)c(F)cc3F)n(-c3ccncn3)c2C1", "target": "CDK8 with cyclin C", "test": "cell-free assay, inhibitor", "conditions": "1 µM", "endpoint": "inhibition", "result": "0.2%"}
{"SMILES": "CN1CCN(Cc2ccc(-c3ccc(CO[C@H]4CCC[C@@H]4NC(=O)c4cc(-c5cnn(C)c5)cnc4N)cc3)cc2)CC1", "target": "CDK8 with cyclin C", "test": "enzyme activity, inhibitor", "conditions": "0.1 µM", "endpoint": "inhibition", "result": "5%"}
{"SMILES": "C=CC(=O)N1CCc2ccc(-n3c(=O)ccc4cnc5ccc(-c6cnn(C)c6)cc5c43)cc21", "target": "CDK8", "test": "KINOMEscan", "conditions": "1 µM", "how to read": "baseline: DMSO control", "endpoint": "remaining binding", "result": "93%"}
{"SMILES": "CN1C[C@@H](c2c[nH]c3cc(Br)ccc23)NC[C@@H]1c1c[nH]c2cc(Br)ccc12", "target": "CDK8 with cyclin C", "test": "enzyme activity, inhibitor", "conditions": "10 µM", "endpoint": "remaining activity", "result": "110%"}
{"SMILES": "COc1c(Cl)cccc1Nc1c(-c2ccncc2C#C[C@@]2(C)CCCN2C(=O)/C=C/CN(C)C)[nH]c2c1C(=O)NCC2", "target": "CDK8", "test": "binding, competition with immobilised ligand", "conditions": "3 µM", "endpoint": "remaining binding", "result": "100%"}
{"SMILES": "CNC(=O)C1CCN(c2cc(C)c(F)cc2NC(=O)c2ccc(-c3cc(O)ccc3C)c(C)c2)CC1", "target": "CDK8", "test": "binding, competition with immobilised ligand", "conditions": "1 µM", "endpoint": "remaining binding", "result": "94%"}
{"note": "Excerpt of the above:"}
{"SMILES": "COc1c(Cl)cccc1Nc1c(-c2ccncc2C#C[C@@]2(C)CCCN2C(=O)/C=C/CN(C)C)[nH]c2c1C(=O)NCC2", "target": "CDK8", "test": "binding, competition with immobilised ligand", "conditions": "3 µM", "endpoint": "remaining binding", "result": "100%"}
